Results from different studies.
Compare with care: the assays were run in different laboratories. ± marks the error that the study gave.

SMILES	organism	assay	system	conditions	scale	measurement	result
O=NN1CCN(C2CCCC2)CC1	Salmonella typhimurium	mutagenicity, Ames plate incorporation	TA1535	1500 µg/plate, 3 d, without S9, methanol	–	revertant colonies per plate	16 ± 7
[Cl-].[Cl-].[Pt+2].[Ru+2].c1ccc(-c2nccnc2-c2ccccn2)nc1.c1cnc2c(c1)ccc1cccnc12.c1cnc2c(c1)ccc1cccnc12	Danio rerio	–	embryos	75 µM, 72 h	–	hatching rate	6.67 ± 5.7%
CC[C@H](C)[C@@H]1NC(=O)[C@H](CO)NC(=O)[C@H](CCSC)NC(=O)CNC(=O)[C@H](C)NC(=O)[C@H]([C@@H](C)CC)NC(=O)[C@@H](NC(=O)[C@@H](NC(=O)[C@@H](NC(=O)[C@H](C)NC(=O)[C@H](CCCCN)NC(=O)[C@H](C)NC(=O)[C@H](Cc2c[nH]c3ccccc23)NC(=O)[C@H](CC(=O)O)NC(=O)[C@@H](NC(=O)[C@@H](NC(=O)[C@@H]2CSSC[C@H](NC(=O)[C@H](Cc3ccc(O)cc3)NC(=O)[C@@H](NC(=O)CNC(=O)[C@H](CC(N)=O)NC(=O)CNC(=O)[C@H](Cc3ccc(O)cc3)NC(=O)[C@H](Cc3ccc(O)cc3)NC(=O)[C@H](CCCCN)NC(=O)CNC(=O)[C@H](CO)NC(=O)[C@H](Cc3c[nH]cn3)NC(=O)[C@@H](NC(=O)[C@@H](N)[C@@H](C)O)[C@@H](C)O)C(C)C)C(=O)N[C@@H]([C@@H](C)O)C(=O)N[C@@H](CCCCN)C(=O)N[C@@H](CC(N)=O)C(=O)N[C@@H](CCCCN)C(=O)N2)[C@@H](C)O)C(C)C)[C@@H](C)O)[C@@H](C)O)CSSC[C@@H](C(=O)O)NC(=O)[C@H](CCCCN)NC(=O)CNC(=O)[C@@H]2CCCN2C(=O)[C@H]([C@@H](C)CC)NC(=O)[C@H](C)NC(=O)CNC(=O)CNC(=O)[C@H](CC(C)C)NC(=O)[C@H](Cc2ccccc2)NC(=O)CNC(=O)CNC1=O (single isomer, unassigned)	Pediococcus damnosus	–	CECT 4797	15 min, 121 °C	–	MIC after heating	> 6 µg/mL
CC(C)CC(=O)OC[C@H]1O[C@@](C#N)(c2ccc3c(N)ncnn23)[C@H](O)[C@@H]1O	human respiratory syncytial virus	viral replication, viral protein ELISA	HEp-2, A2	5 days	baseline: CC50 over EC50	selectivity index	> 222
[Cl-].[Cl-].[Pt+2].[Ru+2].c1ccc(-c2nc3cc4ccccc4cc3nc2-c2ccccn2)nc1.c1cnc2c(c1)ccc1cccnc12.c1cnc2c(c1)ccc1cccnc12	Danio rerio	–	embryos	30 µM, 12 h	–	survival rate	93.3 ± 3%
Cc1cc(C(=O)NC(C)(C)COc2cccc3c2C(N)=NS(=O)(=O)N3)cc(C)n1	Escherichia coli	Ames test, initial	WP2 uvrA	50.0 µg/plate	baseline: solvent control	revertant ratio	0.9
O=[N+]([O-])c1ccc(N2CCN(CCC(O)c3ccc(F)cc3)CC2)c(C(F)(F)F)c1 (stereo not drawn)	Salmonella typhimurium	genotoxicity, SOS/umu test	TA1535/pSK1002	0.125 mg/mL, 4 h, without S9, lower range	–	induction factor	0.2
CNC(=O)c1c(N(C)N=O)ncn1C	Salmonella typhimurium	mutagenicity, Ames plate incorporation	TA1535	1500 µg/plate, without S9, methanol	–	revertant colonies per plate	16 ± 3
CNC(=O)Oc1ccccc1OC(C)C	Anopheles gambiae	–	–	concentration not given, 1 h	–	mortality	100%
COc1cccc(-c2n[nH]c(SCc3ccccn3)n2)c1OC	Escherichia coli	Ames test, preincubation	WP2 uvrA	0.50 mg/plate, with rat liver S9	–	revertant colonies per plate	22
CC(=O)N1CCC(C(=O)N2CCN3C(=O)c4cc(-c5ccccc5)ccc4NC(=O)C3C2)CC1 (stereo not drawn)	Escherichia coli	–	WP2 uvrA	5.0 µg/plate, with rat liver S9	baseline: vehicle	revertant fold increase	1.2
O=[N+]([O-])c1ccc(N2CCC(NCCC(O)c3ccc(F)c4ccccc34)CC2)c(C(F)(F)F)c1 (stereo not drawn)	Salmonella typhimurium	SOS/umu test	TA1535/pSK1002	6.1e-05 mg/mL, 4 h, with 10% rat liver S9	baseline: untreated	induction factor	1.3
COc1ccnc(C(=O)N[C@H]2COC(=O)[C@H](Cc3ccccc3)[C@@H](OC(=O)C(C)C)[C@H](C)OC2=O)c1OCOC(=O)C(C)C	Pseudokirchneriella subcapitata	growth	–	concentration not given, 72 h, static test	–	NOEC	> 522 µg/L
OC(CCN1CC=C(c2ccc(F)cc2)CC1)c1ccc(F)c2ccccc12 (stereo not drawn)	Salmonella typhimurium	SOS/umu test	TA1535/pSK1002	0.031 mg/mL, 4 h, with S9, lower range	–	survival	103%
[Cl-].[Cl-].[Pt+2].[Ru+2].c1ccc(-c2nc3ccccc3nc2-c2ccccn2)nc1.c1cnc2c(c1)ccc1cccnc12.c1cnc2c(c1)ccc1cccnc12	Danio rerio	–	embryos	60 µM, 72 h	–	hatching rate	20 ± 4.4%

A few entries again:
SMILES	organism	assay	system	conditions	scale	measurement	result
[Cl-].[Cl-].[Pt+2].[Ru+2].c1ccc(-c2nccnc2-c2ccccn2)nc1.c1cnc2c(c1)ccc1cccnc12.c1cnc2c(c1)ccc1cccnc12	Danio rerio	–	embryos	75 µM, 72 h	–	hatching rate	6.67 ± 5.7%
